Results pooled from the literature.
Parts stem from different laboratories: compare values within a part only. Positions count from the first letter of the parent shown.

Set 1
Target: ABI1, truncated, D143A, DHFR fusion (Arabidopsis thaliana)
Method: DHFR PCA, deep sequencing
Medium: yeast
Notes: methotrexate growth selection, single substitutions
With: (+)-ABA 2500 µM
Relative to: wild-type fitted maximum
Direction: higher = stronger binding
Starting sequence: PYL1, truncated, DHFR fusion (Arabidopsis thaliana); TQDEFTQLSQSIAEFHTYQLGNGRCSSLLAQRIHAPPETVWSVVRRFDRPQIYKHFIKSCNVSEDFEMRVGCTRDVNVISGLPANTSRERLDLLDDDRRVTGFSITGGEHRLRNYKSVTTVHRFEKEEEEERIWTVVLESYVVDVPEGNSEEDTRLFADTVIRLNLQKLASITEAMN
Change	relative binding score
D75E	97%
L112V	82.2%
L112N	6.05%
T86K	94.2%
G108H	63.9%
L164E	90.8%
F66C	99.4%
V70M	88.2%
K116Q	106%
S140W	42.7%
V161K	8.75%
Y141C	51.3%
Y115P	-2.05%
G21I	99.2%
L169H	-1.94%
G71N	94.5%
A35L	64.6%
V142Q	96.6%
P37C	93.7%
L91Y	4.68%
G102D	-8.33%
R99D	57.6%
F103Q	14%
L8Y	89.4%
I105Y	14.2%

Set 2
Target: Ras GTPase-activating protein-binding protein 1, RRM domain (G3BP1, Homo sapiens, UniProt Q13283)
Chain of UniProt Q13283 (whole entry, looked up): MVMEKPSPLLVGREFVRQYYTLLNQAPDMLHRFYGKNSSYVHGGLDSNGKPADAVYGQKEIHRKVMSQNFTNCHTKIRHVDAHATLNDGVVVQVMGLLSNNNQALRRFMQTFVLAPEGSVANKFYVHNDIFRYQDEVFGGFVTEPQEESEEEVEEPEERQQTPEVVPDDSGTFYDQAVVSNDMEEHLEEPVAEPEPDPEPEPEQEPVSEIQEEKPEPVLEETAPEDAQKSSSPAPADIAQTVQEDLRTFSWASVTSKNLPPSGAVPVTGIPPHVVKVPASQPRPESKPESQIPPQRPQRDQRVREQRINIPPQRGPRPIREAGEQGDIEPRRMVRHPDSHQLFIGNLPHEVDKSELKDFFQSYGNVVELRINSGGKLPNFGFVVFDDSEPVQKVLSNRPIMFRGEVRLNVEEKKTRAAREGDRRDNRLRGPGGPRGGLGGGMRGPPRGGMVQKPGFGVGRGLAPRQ
Method: RNA Bind-n-Seq
Form: RNA
Medium: in vitro
Tested at: 1 µM
Notes: whole 134-nt RNA, ends assumed
With: 150 mM KCl
Relative to: input library
Direction: higher = stronger binding
All sequences stand within: GGGAGUUCUACAGUCCGACGAUC … UGGAAUUCUCGGGUGUCAAGG
Oligonucleotide	log2 enrichment
CACAGACAACACGCACCCACACAGACACAGAGGGAAGGGGUUGGGAUGGGGACAGGGUGCACAGCAGGGCGGGGUAGGACAAAAGCCCCU	-0.0962
CCUGUGCUACACAUCGUAUGUACCGAAUCGGGGAAAAAAAGGGGAAAGGGGUUUUUGGGGAAAGUAUUAUGUUACGCCGUUCGGAUCUGC	0.865
UUGUGGGAGGAUUUUGAGAUACUUAUUCUUUAUUUGAGCCAGUCUUGCAAGGUUAACUUCUCACUGGGCCUAGUGUGGUGCCCAGGUUUU	-0.429
UUUUCAAGGGGGCCCCAACUGGGGCCGCCUUGUAGCCUUCUUUGUCUUUGGGGCUGCACUGUGUGCUGAGAGUGUCAACAAGGAGAUGGA	-0.506
UUGUUUAUUCUGUGUCUUUUGCCUCCUUUCCUACAGAUGUCCGGCAGGAUAAUGCUGCUGGCAGAGCUGGCUCCAGUAGCCUUACACAGG	-0.0823
UCCUGUGCUACACAUCGUAUGUACCGAAUCGGGGUUUGGGGAAAGGGGUUUUUUUGGGGAAAGUAUUAUGUUACGCCGUUCGGAUCUGCA	1.1
UGUUUAAUAAACGUGAAGAUGUCUCGCAGUCCUGAUGCGAAGGAAGACCCUGUGGAGUGCCCUCUUUGCAUGGAGCCCUUGGAGAUAGAU	-0.129
AGUCCUGUGCUACACAUCGUAUGUACCGAAUCGGGGAAAAGGGAAAAGGAAAAGGGGAAAGUAUUAUGUUACGCCGUUCGGAUCUGCACU	0.137
CACAGACAACACGCACCCACACAGACACAGAGGGAAGGGGUUUGGAUGGGGACAGGGUGCACAGCAGGGCGGGGUAGGACCCCAGCCCCU	-0.0283
CAAGUCCUGUGCUACACAUCGUAUGUACCGAAUCGGAGGUUUUUUUGGAAAAAGGAAAGUAUUAUGUUACGCCGUUCGGAUCUGCACUUC	-0.229
GGCACCCUUUGAAGGGGAGGAUGAAGAUGAACUCUUCCAAUCCAUCAUGGAACACAACGUAGCCUAUCCCAAGUCUAUGUCCAAGGAAGC	-0.211
GUCCUGUGCUACACAUCGUAUGUACCGAAUCGGGGAGGGGAAAGGGGAAAAAAAGGGGAAAGUAUUAUGUUACGCCGUUCGGAUCUGCAC	0.754
UCCUGUGCUACACAUCGUAUGUACCGAAUCGGGGUUUUUUUGGGGAGGGGAAAAAGGGGAAAGUAUUAUGUUACGCCGUUCGGAUCUGCA	0.555
UGCAGAAGCAUCUUCAGUUGGAGAGCCAUUGCCUCUUGCUGUGAAAUAUUUGGGAAUCUUCAGAAACCAUGAAGAAUAACCUGCUAAAGG	-0.211

Set 3
Target: RNA binding protein fox-1 homolog 2, RRM domain, GST-SBP tag (RBFOX2, Homo sapiens, UniProt O43251-10, residues 100-194)
Method: RNA Bind-n-Seq
Form: RNA
Medium: in vitro
Tested at: 365 nM
Notes: natural RNA segment, single round, ends assumed
Relative to: no-protein control
Direction: higher = stronger binding
All sequences stand within: GGGAGUUCUACAGUCCGACGAUC … UGGAAUUCUCGGGUGCCAA
Construct (chain): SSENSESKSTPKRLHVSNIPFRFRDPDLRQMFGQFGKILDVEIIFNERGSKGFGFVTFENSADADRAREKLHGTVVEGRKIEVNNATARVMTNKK
Oligonucleotide	RBNS enrichment (R)
AGCGGUGGAUGCUGCAUAAUCCACCUGGGUACUUCAGCCUUGCGUUUCCACAGCCUUCAGCCUGUUCUAGAACGAUCACUGCCUUACCCCUGCUGCUGCAGUGGUGUGAG	0.347
AGAGCUUCAGGCCCAGACUGGGGCACCGAAGCUUUCAGCUUUGGGGGUCAUUCUACCAACAAUCAGUCCCUGAGGGUUCACAACACCCUGGAACCAAACAUCAGAAUGCA	0.87
CUCCUGGACCCACUUCCAGUCCCGUUUUGCAUUCCCCUUUGGAUUUUGCUUUGGCUAUUUUUUGUUGUAACCUCUUGAUGUAACAGCACUUUAAAAGGGCGACAACUGAC	0.573
AUACCCUUCUCUCUCCUCUUACUCGUACUGAGACUCCAGUUGUAACUGCUUGUUUUCGCUCACUUGCCUCCCCUUCAGACAUGUAAGUGCAGUCUCCAAAGCUUGACGUU	2.19
CUGAGGGGUCUAUAGGUUUGUGAUUAAAAUAAUAAAAGCUAGGCGUGUUUGAUGCGCUUUUAACUUUGCAAAGAGUCUCCUGUCCUUGUUUUACACUGUGCAGUGAACAU	0.451
CUGGAUAUGUGACUGUUUUGUUCUCUGUAAAGUGUAUUCUUGGGAAGUGAUUGGUUUAUAUCAGAUUCAGAGGAGCCCAAUUAACUCCAGUGUAGGUAAUGUAAAACAGU	0.443
UGGGAAAGAGAGCACUGGCUCACUGUGCAGUUUUCAUGUUUCCUCAGCAAGCCAUCAAGCCUCACAUCUCUACCAUCAGAGAUAGAGCUUGGCCAUUUAUCUAAGGAAGA	0.227
GUUUCUCUACUGGUCAGGAUGCUUUUCUCAUAAGGGUCGACUUUUUUCACCAGUCACAUAAACACUAUGUGGACUGGCAGUGGUUCUCUGCUCCUCCACAUCCUGGAGCG	0.268
AACAUAUUUAUAAGGACAUAUUCCUGUGGGUUCUUGGGUGUGUUUGCCACAUCAAGAUUUUAGGGAAGGGGGGUAUAUGUGUAGUAGGGAUGCCGUUUGAAAACAGGCAC	0.875
AGGAACAGAGCGCGAACGGCUUCUAAAUUUCUAGCCCUCUCGCAGGGCAUCCUGACUGAACUGUGUCUAAGGGUCGGUCGGUUUACCACUGGACGGGUGCUGCAUCGGCA	0.414
CAUCAUAAGGAAAAACUUUUAUCGCAAUGAUAGUCAGUUCACAUUAGUUUAGCACUAUAGAUAGUAUUCAGAAAUUGCUUUCUCUUUGGUAAAGAAGAUAAAUAGGUGAA	0.506
CAGGUCACUCUCCCGAUCUCCCUACUACCAGCCAGGUGCUGUUUCCUUCUGAGCUGUGGAGAUCACACCAUCCUGUCGCCCUGCAAAUAAUUGUGGAUCAUUUACCUUGA	0.384

Set 4
Target: CCNA1, cyclin fold, Cln2 fusion (human)
Method: yeast growth competition, sequencing
Medium: yeast
Notes: weak parent motif
Relative to: not given
Direction: higher = stronger binding
Starting sequence: CDKN1B docking peptide (human); PSACRNLFGPVDH; partner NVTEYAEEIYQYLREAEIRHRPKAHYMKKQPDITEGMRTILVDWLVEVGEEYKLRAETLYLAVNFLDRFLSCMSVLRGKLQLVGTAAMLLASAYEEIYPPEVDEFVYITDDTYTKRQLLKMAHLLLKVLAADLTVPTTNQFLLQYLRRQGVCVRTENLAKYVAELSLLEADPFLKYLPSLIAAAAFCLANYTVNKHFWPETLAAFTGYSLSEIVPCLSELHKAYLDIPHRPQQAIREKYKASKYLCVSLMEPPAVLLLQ
Change	normalised enrichment score
PSACRNLFQPVDH [G9Q]	0.418
PSACRNLFGLVDH [P10L]	0.437
PSACRNLFPPVDH [G9P]	0.0912
PSACRNLFGKVDH [P10K]	0.312
PSACYNLFGPVDH [R5Y]	0.458
PSECRNLFGPVDH [A3E]	0.414
PSACRYLFGPVDH [N6Y]	0.0732
PSAMRNLFGPVDH [C4M]	0.267
PSGCRNLFGPVDH [A3G]	0.241
PSACRNLVGPVDH [F8V]	0.0204
PSACRNYFGPVDH [L7Y]	0.277
PSACRNLFMPVDH [G9M]	0.335
PSVCRNLFGPVDH [A3V]	0.501
PSACRNLFGPVDT [H13T]	0.331
PSACRNLFGPPDH [V11P]	0.303
PSACRALFGPVDH [N6A]	0.299
PSACWNLFGPVDH [R5W]	0.209
PSNCRNLFGPVDH [A3N]	0.394
PSACRNLFGPVDV [H13V]	0.2
PSACRNLFGPVFH [D12F]	0.423
PSACRNLFCPVDH [G9C]	0.125
GSACRNLFGPVDH [P1G]	0.213
PSACRKLFGPVDH [N6K]	0.214
PSAWRNLFGPVDH [C4W]	0.379
PSADRNLFGPVDH [C4D]	0.283

Set 5
Target: Histone acetyltransferase KAT6A, both winged helices, GST fusion (KAT6A, Homo sapiens, UniProt Q92794, residues 1-181)
Method: protein binding microarray
Form: double-stranded DNA, one strand shown
Medium: in vitro
Tested at: not given
Notes: 8-mer, flanks averaged, mean of 2 arrays, mostly near background
Relative to: not given
Direction: higher = stronger binding
Target sequence (chain): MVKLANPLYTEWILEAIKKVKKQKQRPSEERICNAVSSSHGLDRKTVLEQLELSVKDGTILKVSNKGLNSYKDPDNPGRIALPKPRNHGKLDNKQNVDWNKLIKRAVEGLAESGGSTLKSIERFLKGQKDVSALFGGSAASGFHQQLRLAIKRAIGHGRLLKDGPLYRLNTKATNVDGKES
Oligonucleotide	E-score
CCAATACC	0.029
AAGGTATG	-0.0522
CTGCACGA	-0.145
ATCTTGTA	-0.138
AATAAATA	0.0158
ACGTCCAA	-0.00585
TCCTTGCA	-0.0907
GGACTGCA	-0.131
CCGGACGC	0.286
AACATGAA	-0.0174
CGCTGCCA	0.0438
CATGCGGG	0.179
CATGGGAG	-0.0728
CCCCCCCC	-0.248
GGTTCACA	0.134
CCATCGTC	-0.102
GTCCCCAC	-0.0446
ATCCATTA	-0.057
ATGTGGCG	0.157
ACTCGGAC	0.0517
CTCAGCCC	-0.136
